# Results pooled from the literature.
# Numbers after ± are the reported error.
# UniProt Q9Y6L6, sequence (whole entry, looked up): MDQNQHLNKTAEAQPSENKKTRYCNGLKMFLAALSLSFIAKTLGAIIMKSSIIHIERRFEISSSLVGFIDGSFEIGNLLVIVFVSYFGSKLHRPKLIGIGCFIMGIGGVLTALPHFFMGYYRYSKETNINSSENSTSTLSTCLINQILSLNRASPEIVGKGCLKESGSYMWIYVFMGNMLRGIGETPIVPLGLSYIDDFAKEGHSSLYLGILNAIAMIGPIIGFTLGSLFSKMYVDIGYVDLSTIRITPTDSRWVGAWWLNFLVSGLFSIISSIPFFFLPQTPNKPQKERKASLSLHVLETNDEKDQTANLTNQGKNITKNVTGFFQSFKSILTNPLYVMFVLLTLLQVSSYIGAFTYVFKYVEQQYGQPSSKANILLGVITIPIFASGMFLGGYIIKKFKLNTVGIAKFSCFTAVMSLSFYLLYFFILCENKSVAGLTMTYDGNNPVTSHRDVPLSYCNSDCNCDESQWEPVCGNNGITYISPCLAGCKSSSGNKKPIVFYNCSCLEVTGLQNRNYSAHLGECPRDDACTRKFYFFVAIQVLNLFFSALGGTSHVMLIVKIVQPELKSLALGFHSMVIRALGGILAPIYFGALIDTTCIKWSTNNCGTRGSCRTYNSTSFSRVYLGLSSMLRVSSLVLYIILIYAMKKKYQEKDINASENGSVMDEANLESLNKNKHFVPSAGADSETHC
# UniProt Q12809, sequence (whole entry, looked up): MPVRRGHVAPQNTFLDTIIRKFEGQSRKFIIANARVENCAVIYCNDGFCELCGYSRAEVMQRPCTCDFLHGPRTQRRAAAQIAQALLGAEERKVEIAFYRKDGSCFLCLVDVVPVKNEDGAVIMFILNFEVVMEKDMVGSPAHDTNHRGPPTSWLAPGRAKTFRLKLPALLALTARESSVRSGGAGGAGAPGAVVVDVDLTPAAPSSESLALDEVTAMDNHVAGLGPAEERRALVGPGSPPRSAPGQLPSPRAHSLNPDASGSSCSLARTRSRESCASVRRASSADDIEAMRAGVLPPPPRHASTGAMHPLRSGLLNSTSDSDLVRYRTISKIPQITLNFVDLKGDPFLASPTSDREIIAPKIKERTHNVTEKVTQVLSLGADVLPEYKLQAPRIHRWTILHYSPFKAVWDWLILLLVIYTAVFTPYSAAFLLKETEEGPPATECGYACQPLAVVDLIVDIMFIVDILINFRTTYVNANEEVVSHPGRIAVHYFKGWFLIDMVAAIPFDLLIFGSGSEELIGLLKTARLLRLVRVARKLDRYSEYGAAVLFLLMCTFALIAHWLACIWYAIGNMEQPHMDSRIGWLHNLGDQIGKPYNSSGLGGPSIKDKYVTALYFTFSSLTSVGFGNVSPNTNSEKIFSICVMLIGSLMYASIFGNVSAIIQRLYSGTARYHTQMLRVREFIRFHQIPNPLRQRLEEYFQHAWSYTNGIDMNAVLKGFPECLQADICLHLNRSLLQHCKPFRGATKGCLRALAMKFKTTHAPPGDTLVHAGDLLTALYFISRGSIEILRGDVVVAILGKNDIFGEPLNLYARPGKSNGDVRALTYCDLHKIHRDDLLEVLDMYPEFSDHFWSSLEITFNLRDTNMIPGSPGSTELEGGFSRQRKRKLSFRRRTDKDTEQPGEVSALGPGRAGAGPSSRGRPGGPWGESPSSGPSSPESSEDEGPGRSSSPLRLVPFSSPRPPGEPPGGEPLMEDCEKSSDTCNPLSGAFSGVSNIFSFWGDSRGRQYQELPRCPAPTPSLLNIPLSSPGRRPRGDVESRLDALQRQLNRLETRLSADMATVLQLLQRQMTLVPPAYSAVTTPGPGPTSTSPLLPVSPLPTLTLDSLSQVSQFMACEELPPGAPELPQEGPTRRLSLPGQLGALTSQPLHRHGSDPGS
Structure (SMILES),tested on,test,system,conditions,scale,quantity,value
[64Cu+2].c1ccc(CNCc2ccc(CN3CCCNCCNCCCNCC3)cc2)nc1,CXCR4,,"NOD/SCID mouse, U87 xenografts, U87 tumour",90 min,,tissue uptake,5.35 ± 1.15 %ID/g
CC[C@H](C)[C@H](NC(=O)[C@@H](NC(=O)[C@H](CCCCN)NC(=O)[C@H](CC(=O)O)NC(=O)[C@H](CCCCN)NC(=O)[C@H](Cc1ccccc1)NC(=O)[C@H](Cc1ccccc1)NC(=O)[C@H](CO)NC(=O)[C@H](CCCCN)NC(=O)[C@H](CCSC)NC(=O)[C@H](CCCCN)NC(=O)[C@H](CCCCN)NC(=O)[C@H](Cc1c[nH]c2ccccc12)NC(=O)[C@@H](N)Cc1ccccc1)C(C)C)C(=O)N1CCC[C@H]1C(=O)N[C@@H](CCCCN)C(=O)N[C@H](C(=O)N[C@@H](CCC(N)=O)C(=O)N[C@@H](CCC(N)=O)C(=O)N[C@@H](C)C(=O)N[C@@H](Cc1ccc(O)cc1)C(=O)N[C@@H](CO)C(=O)N[C@@H](CC(C)C)C(=O)N[C@@H](Cc1ccc(O)cc1)C(=O)N[C@@H](CC(N)=O)C(=O)N[C@@H](CCCCN)C(=O)N[C@@H](CC(C)C)C(=O)N[C@@H](CCC(N)=O)C(=O)N[C@@H](Cc1c[nH]cn1)C(=O)N[C@@H](CCCCN)C(=O)N[C@@H](CC(C)C)C(N)=O)C(C)C,HEK293T,WST-8,,"up to 25 µg/mL, 24 h",baseline: water,viability,no effect
COC(=O)CCCC1C2CCCN3CCCC(CN1S(=O)(=O)c1ccc(Cl)cc1)C23 (centres unmarked),HEK293T,,,,,CC50,200 µM
Cc1nc(=O)c2cc(CN(C)c3ccc(C(=O)NCc4cccc(C(=O)O)c4)s3)ccc2[nH]1,Mycobacterium tuberculosis,,H37Rv,"10 µM, 24 h",,metabolized share of uptake,86%
CN(C)CC1CCCCC1(O)c1cccc(O)c1 (centres unmarked),,,Caco-2,"10 µM, 3 h, pH 6.8",,Papp B→A,12 ×10⁻⁶ cm/s
NC(=O)c1ccc[n+](-c2ccccc2)c1,CRFK,"cell growth or viability, ATP luminescence",,72 h,,CC50,60.5 µM
C[C@@](O)(C(F)F)[C@H](NC(=O)c1ccc(C#CC#CC2CC2)cc1)C(=O)NO,,,CD-1 mouse,"oral, 40 mg/kg, fasted",,CL/F,37.7 ± 7.5 mL/min/kg
O=C(O)CCC(NP(=O)(O)OCCC[C@@H](NC(=O)CCC(NC(=O)CCCCCNC(=O)CCCCCNC(=O)c1ccc([18F])cc1)C(=O)O)C(=O)O)C(=O)O (some centres unmarked),CWR22Rv1 tumour model,,"host not given, lung","intravenous, 1 h, tumour-bearing",,tracer uptake,0.25 %ID/g
O=C(O)CC1C2CCCN3CCCC(CN1S(=O)(=O)c1ccc(Cl)cc1)C23 (centres unmarked),HEK293T,,,,,CC50,> 200 µM
CC[C@H](C)C(=O)N1CCC(NC(=O)Nc2ccc(OC(F)(F)F)c(F)c2)CC1,,,"human, plasma","oral, 8 mg, single dose, healthy volunteers",,half-life,59.1 h
O=C(O)CCC(NP(=O)(O)OCCC[C@@H](NC(=O)CCC(NC(=O)c1ccc([18F])cc1)C(=O)O)C(=O)O)C(=O)O (some centres unmarked),PC-3 tumour model,,"host not given, heart","intravenous, 2 h, tumour-bearing",,tracer uptake,0.36 %ID/g
COc1cc(C(=O)NCCOCCOCCOCCNC(=O)c2ccc([18F])nc2)ccc1NC(=O)C1NC(CC(C)(C)C)C(C#N)(c2ccc(Cl)cc2F)C1c1cccc(Cl)c1F (centres unmarked),HepG2 tumour model,,"host not given, liver","4 h, tumour-bearing",,tracer uptake,1.24 %ID/g
N[C@]1(c2ccccc2Cl)CCC[C@H](O)C1=O,,,Wistar rat,"intravenous, 20 mg/kg, over 60 min",,brain to plasma ratio,~2 fold
CC[C@H](C)[C@H](NC(=O)[C@H](CC(=O)O)NC(=O)[C@@H](NC(=O)[C@@H]1CCCN1C(=O)[C@H](CCCNC(=N)N)NC(=O)CCc1cn(CCOCCOCCOCCNC(=O)CCCCC[N+]2=C(/C=C/C=C/C=C3/N(C)c4ccccc4C3(C)C)C(C)(C)c3ccccc32)nn1)[C@@H](C)O)C(=O)N[C@@H](CCCCN)C(=O)N[C@H]1CSSC[C@@H]2NC(=O)[C@H](CCCNC(=N)N)NC(=O)CNC(=O)[C@H](CC(N)=O)NC(=O)[C@H]([C@@H](C)O)NC(=O)[C@H](CCCCN)NC(=O)CNC(=O)[C@H](Cc3ccccc3)NC(=O)[C@H](CCCNC(=N)N)NC(=O)[C@H](CO)NC(=O)[C@H](CCCCN)NC(=O)[C@@H]3CSSC[C@@H](C(=O)N[C@@H](Cc4ccccc4)C(=O)O)NC(=O)[C@H](CC(=O)O)NC(=O)[C@H](CSSC[C@H](NC(=O)[C@H](CCC(N)=O)NC(=O)[C@H](Cc4ccc(O)cc4)NC(=O)[C@H](CO)NC(=O)[C@H](CCC(=O)O)NC(=O)[C@H](CO)NC1=O)C(=O)N[C@@H](Cc1ccccc1)C(=O)N1CCC[C@H]1C(=O)N[C@@H](C(C)C)C(=O)N3)NC(=O)[C@H](Cc1ccccc1)NC(=O)CNC(=O)[C@H](CC(N)=O)NC(=O)[C@H](C(C)C)NC2=O,"KCNH2 (Homo sapiens, UniProt Q12809)","ion current, inhibitor, two-electrode voltage clamp",,"pH 7.4, oocytes",,IC50,0.0886 µM
CN[C@](C)(C[18F])C(=O)O,DU-145 tumour model,,"host not given, heart","1 h, tumour-bearing",,tracer uptake,2.2 %ID/g
O=c1c(Nc2ccc(Br)cc2)c(NC2CCN(Cc3ccccc3)CC2)c1=O,SH-SY5Y,MTT,,"12.5 µM, 24 h",,viability,96.09 ± 0.57%
N#Cc1ccc(-c2ccc(-c3ccco3)o2)cc1,Salmonella typhimurium,"mutagenicity, Ames test",TA1535,"10 or 20 µM, 48 h, pH 7.4, higher tested concentration, with: rat liver S9 mix",,revertant colonies,23.7 ± 2.5 colonies/plate
Cc1ccc(NS(=O)(=O)c2c(C(=O)N3CCCCCC3)c(C)n(C)c2C)c(Cl)c1,,,"ICR mouse, male, plasma","intraperitoneal, dose not given",,Tmax,~0.2 h
COc1ccc(CNc2nc(N3CCC[C@H]3CO)ncc2C(=O)NNC(=O)c2cnc(N3CCC[C@H]3CO)nc2NCc2ccc(OC)c(Cl)c2)cc1Cl,Salmonella typhimurium,,TA102,"125 µg/plate, with: rat liver S9",,revertant count,209 ± 22
O=C(O)CCC(NP(=O)(O)OCCC[C@@H](NC(=O)CCC(NC(=O)CCCCCNC(=O)c1ccc([18F])cc1)C(=O)O)C(=O)O)C(=O)O (some centres unmarked),PC-3 tumour model,,"host not given, kidney","intravenous, 2 h, tumour-bearing",,tracer uptake,19 %ID/g
Nc1nc2c([C@@H]3O[C@@H]4COP(=O)(O)O[C@H]5[C@@H](O)[C@H](n6cnc7c(=O)[nH]c(N)nc76)O[C@@H]5COP(=O)(O)O[C@H]4[C@H]3O)snc2c(=O)[nH]1,,,,,baseline: parent monomeric nucleoside,relative emission quantum yield,19%
C[n+]1ccc(Nc2ccc(O)cc2)c2ccc(Cl)cc21,BHK-21 DENV2 replicon cells,,,24 h,,CC50,> 100 µM
COc1cccc(C2(O)CCCCC2CN(C)C)c1.Cc1ccc(-c2cc(C(F)(F)F)nn2-c2ccc(S(N)(=O)=O)cc2)cc1.Cl (racemic),,,"healthy human, fasted","oral, dose not given",,subjects with euphoric mood,1 /1
CCC(=O)N(C)c1ccc(Cl)c(Cl)c1,Salmonella typhimurium,Ames test,TA1537,"5.00 mg/plate, with rat liver S9",,revertants,0 revertants/plate
CC(CCC(=O)NCC(=O)O)C1CCC2C3CCC4CC(OC5OC(C(=O)O)C(O)C(O)C5O)CCC4(C)C3CC(O)C12C (centres unmarked),"SLCO1B1 (Homo sapiens, UniProt Q9Y6L6)",substrate,transfected HEK293 cells,"1 µM, 2 min",baseline: wild-type HEK293 cells,uptake ratio,77.8
COc1ccc(CNc2nc(N3CCC[C@H]3CO)ncc2C(=O)NN)cc1Cl,Salmonella typhimurium,,TA97a,"1000 µg/plate, 48 h, with: rat liver S9",,revertant count,172 ± 8
